Measured values gathered from unrelated publications.
Each line is one published result; not all experiments were run side by side. Numbers after ± are the reported error.
Chain of UniProt P37136 (whole entry, looked up): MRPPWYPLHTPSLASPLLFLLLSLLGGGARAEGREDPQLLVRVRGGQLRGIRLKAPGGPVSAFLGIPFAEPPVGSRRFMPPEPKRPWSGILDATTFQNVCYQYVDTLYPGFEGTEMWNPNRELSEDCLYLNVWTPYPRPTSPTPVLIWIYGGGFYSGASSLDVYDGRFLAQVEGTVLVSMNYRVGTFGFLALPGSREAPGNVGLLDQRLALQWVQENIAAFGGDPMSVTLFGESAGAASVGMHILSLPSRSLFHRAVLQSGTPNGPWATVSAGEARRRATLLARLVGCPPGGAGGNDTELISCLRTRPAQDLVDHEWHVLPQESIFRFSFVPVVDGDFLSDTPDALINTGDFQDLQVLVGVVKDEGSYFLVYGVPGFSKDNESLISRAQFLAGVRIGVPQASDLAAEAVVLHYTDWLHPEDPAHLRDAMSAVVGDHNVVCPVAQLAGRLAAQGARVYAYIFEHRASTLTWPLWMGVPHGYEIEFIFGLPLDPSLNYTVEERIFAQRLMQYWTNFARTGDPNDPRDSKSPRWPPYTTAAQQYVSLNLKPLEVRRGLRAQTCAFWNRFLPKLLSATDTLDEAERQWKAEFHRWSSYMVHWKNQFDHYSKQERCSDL

Molecule	target or system	assay	system	conditions	endpoint	result
phoxim-oxon	Ache (Rattus norvegicus, UniProt P37136)	inhibitor	rat, postnatal day 1, rat serum	–	IC50	30 nM
maraviroc	–	–	white CYP3A5 poor metabolizers, plasma	300 mg twice daily	C12	63.1 ng/mL
chicoric acid	–	UPLC	broiler chicken, plasma	oral gavage, 20 mg/kg	Vz/F	251 ± 75.2 L/kg
deucravacitinib	–	multiple ascending dose	healthy human	oral, 6 mg twice daily	subjects with headache	33.3%
semaglutide	–	measured: mild severity	human, safety analysis set	concentration not given, 32 weeks, run-in	participants with adverse events	68.8%

Some of these lines once more:
Molecule	target or system	assay	system	conditions	endpoint	result
phoxim-oxon	Ache (Rattus norvegicus, UniProt P37136)	inhibitor	rat, postnatal day 1, rat serum	–	IC50	30 nM
